# Experimental data collected from several papers.
# Each numbered part is a random draw from the data of one study; scales do not carry over between parts. Changes are numbered by the printed parent chain.

# Series 1
# Target: CCNB2, cyclin fold, Cln2 fusion (human)
# Technique: yeast growth competition, sequencing
# Sample: yeast
# Setting: weak parent motif
# Reference: not given
# Reading: higher = stronger binding
# Starting sequence: INSM1 docking peptide (human); PKAIRKLHFEDEV
Change,normalised enrichment score
PKAIRKGHFEDEV [L7G],0.157
PKAIRKLHFEDKV [E12K],0.528
PKLIRKLHFEDEV [A3L],1.2
PKAIRKLHREDEV [F9R],0.0714
PKAIRKLHFEMEV [D11M],0.286
PKAIVKLHFEDEV [R5V],0.111
PKAIRKLHFFDEV [E10F],0.161
PKAYRKLHFEDEV [I4Y],0.0836
PKAIRWLHFEDEV [K6W],0.0465

# Series 2
# Target: RING finger protein unkempt homolog, zinc fingers 1-6, GST-SBP tag (UNK, Homo sapiens, UniProt Q9C0B0, residues 30-357)
# Technique: RNA Bind-n-Seq
# Molecule type: RNA
# Sample: in vitro
# Tested at: not given
# Setting: RNA with constant flanks, human-mouse chimeric sites, ends assumed
# Reference: input RNA pool
# Reading: higher = stronger binding
# Shared flanks, not repeated: GGGAGUUCUACAGUCCGACGAUC … CAACAGAGGAUUGAGCAUCA
# Residues (chain): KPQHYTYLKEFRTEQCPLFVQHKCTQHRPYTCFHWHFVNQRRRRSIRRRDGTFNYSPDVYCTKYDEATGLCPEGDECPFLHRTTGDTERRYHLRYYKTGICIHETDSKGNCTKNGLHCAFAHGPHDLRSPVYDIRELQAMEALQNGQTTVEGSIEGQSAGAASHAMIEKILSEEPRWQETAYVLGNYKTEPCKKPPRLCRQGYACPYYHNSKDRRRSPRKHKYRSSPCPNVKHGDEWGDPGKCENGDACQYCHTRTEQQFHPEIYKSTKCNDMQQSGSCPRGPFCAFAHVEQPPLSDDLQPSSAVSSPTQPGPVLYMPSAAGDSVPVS
Oligonucleotide,bound/input enrichment
UUGUCGAAGACUCAACGAAAGACUCCAACGGUUAUUCAUAAACAUUAUCAAAUUCAUCGCAUUAGACAUUUUUAUAUGAGAAAAGUCAAAUUUACUCAACAGAAUUACCAUGACAGACUG,7.18 ratio
ACACAAUAUGAGACCAACAGCAUGGACUUCAAAGUUGGGGCAGAUGGGACAGUCUUCGCCACCCGGGAGUUGAAGAUCCCCUCCGAGCAGGUGGCCUUCACGGUGACUGCAUGGGACAGC,0.263 ratio
CCUCCCCCGGGCCACCCACCCCUCCCGGCUCCCCGCCGAGAUCCAGGUUUCUUCUUAUUUCAUAGCCAAUAAGAAAAAUGUUCUACGCACAUUUUGUCCUCAGUAAACGAGGGCCUCUGG,1.08 ratio
UGACAAGGGCACUGCAGAGCCAUGCCUUUCCUUGACAUACAGAAAAAGCUGGGCAUCAGCCUGGACCGGCACUUUAUAAUCCAGAGUGCAGAACAGCCCUAUAAGAACGCCGCUCGGUGC,0.0737 ratio
AUUGUUGAAGCGAAUCCACUCCUAGAAGCAUUUGGAAAUGCAAAGACUGUUCGCAACAAUAAUAGCAGUCGAUUUGGAAAAUUUGUAGAAAUUCAUUUCAAUGAAAAGAGUUCGGUUGUU,0.294 ratio
AGUACUGACUCAGGCGGAUUUUGCAACACCAAGCUCACAGCAGCAGCUCCAUAGUCACAGUAGGGUAGUUUUGGGGCUCUGUGGCCAGGGUUUUAUUCACAUGCAGGUUUGGAAAAUGUA,0.642 ratio
CUGUUUUGACAGCCACAAAUUCUUGGCAUGUAUUAAGGAAAAAAAAAAUCCCUGUUGAAGUAGUUUUUCCACCUAUCAGCACUGAGUAAAUGCCAUAAAUCCAUUGAAAUGGUCUAAAUA,0.241 ratio
AAAUCGUGUGUGUCCAAUAUUGAAAGUGCUUUAUCUACACUCCAGUAUGUAAGCAGUAUAGUAGUUUCUUUAGAGAAUAGGUCAGCCAUUGUGAAGUACAAUGCAAGCUCAGUCACUCCA,28.6 ratio
UUGAAAACAAACUGAUUUAAGUUUGAGUAUCACAAUGUUAGCUUUCUAAUUCCAUAAAGAUAGUUUUUUUUUACAGUUUAUAAUCUGACAUCACCCCAGCGCCAUUUGUAAAGAGCAACU,13.8 ratio
UAAAUCCUGUGCCAGCACUUCGCUCAUAAAGUUUUAAAUUCUGGACCAAUAGUGUUUGUUUCCUGAUUAUUGUAUCCAAUACUUUGCCUAGUAUGUAACUCACUCUUACUGAUAAUAAAA,2.25 ratio
CCAAUCGUGGAGCAGUACUUGAAGACAAAGAAAAAUUCUAAUAAUUUAAUCAUCAAGUACAUUAGCUGCCGCCUGCUGACAUUUGUGAUUAUACUGUUAGCGUGUAUCUACCUGGGCUAU,0.22 ratio

# Series 3
# Target: Histone acetyltransferase KAT6A, winged helix 2, GST fusion (KAT6A, Homo sapiens, UniProt Q92794, residues 85-181)
# Technique: protein binding microarray
# Molecule type: double-stranded DNA, one strand shown
# Sample: in vitro
# Tested at: not given
# Setting: 8-mer, flanks averaged, mean of 2 arrays, mostly near background
# Reference: not given
# Reading: higher = stronger binding
# Residues (chain): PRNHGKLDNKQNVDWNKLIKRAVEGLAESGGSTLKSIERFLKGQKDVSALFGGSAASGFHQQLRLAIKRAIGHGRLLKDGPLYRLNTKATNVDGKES
Oligonucleotide,E-score
TGTGATAA,0.126
AGTATGGG,0.0217
AGAGGCCC,-0.0897
CGGGGTTA,-0.122
ATGAAAGC,0.06
AGTCACCA,-0.125
ATATGATA,0.167
CAAAGAAA,0.0876
CTGTGAGA,-0.165
TAGCCCGA,0.105
ACTGTTAG,-0.173
ATGAAGAG,-0.0186
CTCCGTGC,0.124

# Single results of other studies
Molecule,target,test,test system,conditions,scale,quantity,result
"PhoQ, residues 284 288 289 292 302 303 SASVAL","PhoP, residues 12 14 15 18 19 NMSSL (Escherichia coli, UniProt P23836)","Sort-seq, refers to: YFP reporter",E. coli,"PhoQ-PhoP variant library, together with: 10 µM Mg2+","reference: high Mg2+ state, higher = stronger signaling",fold induction,13.2

# Some of these lines once more (single results of other studies):
Molecule,target,test,test system,conditions,scale,quantity,result
"PhoQ, residues 284 288 289 292 302 303 SASVAL","PhoP, residues 12 14 15 18 19 NMSSL (Escherichia coli, UniProt P23836)","Sort-seq, refers to: YFP reporter",E. coli,"PhoQ-PhoP variant library, together with: 10 µM Mg2+","reference: high Mg2+ state, higher = stronger signaling",fold induction,13.2
